# Results from different studies.
# Each numbered part is a random draw from the data of one study; scales do not carry over between parts. Changes are numbered by the printed parent chain.

# Block 1
# Target: RNA binding protein fox-1 homolog 2, RRM domain, GST-SBP tag (RBFOX2, Homo sapiens, UniProt O43251-10, residues 100-194)
# Method: RNA Bind-n-Seq
# Molecule type: RNA
# Sample: in vitro
# Concentration: 365 nM
# Notes: natural RNA segment, single round, ends assumed
# Reference: no-protein control
# Direction: higher = stronger binding
# Shared flanks, not repeated: GGGAGUUCUACAGUCCGACGAUC … UGGAAUUCUCGGGUGCCAA
# Construct (chain): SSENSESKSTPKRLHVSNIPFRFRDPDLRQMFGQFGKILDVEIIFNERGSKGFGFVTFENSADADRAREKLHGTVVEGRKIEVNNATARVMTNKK
Oligonucleotide,RBNS enrichment (R)
GGACCUGGAGUUCGGGCAGAUGUGACAUCAAUAAAACUGCGUCUCACAUUUUAACCAUGUUUUCUGACACCAGAGGAGUAGUGUGGACUCUUACAUUCCGGAGUUUGGGU,0.361
CAACACUUUUGGGGAAGUCUCAUUUUUGCAUUAGGACAUAUUUUAGGUUAAACAAAAGCAUAUUUUAGAAACAGACAAAAGCCAACUGAAAAUCGUGGAUGAAUAGUUAC,0.773
CAGCAUCUCUACUUUUAAAGAGGAGUUGAGGAUCGAGAAGAUGACAGUGCAGCAGUGGGUGUGGCCUGACUACAUGUGCUGUUCCAGCCCUGGGUGCCCACUGACACCGA,0.241
UCCUACUCCCCUUUCCCUCCAAAUGUUAAGGGUUUUCUCCCAGAACAGUAAUGGGGCUAAAGGGGCAGUGAGCUCCAAACAGUCACAGAGUGAGGAGUCUUCUGAGCUCC,0.177
CUAAGACUGAUCUGAGAGCCAUUGGGCCAUCAAGCCUUUAUAUAUCUGCUUCUAAAAUUGCCCCACCUGCUCUAGAUGGAUCUUUGGGCCUUUCCUCAGUGUUCAUGCAA,0.854
UGUGCUAUCCGCAGGAACCGCGAGAUGGUCUAAGUCAGCUUACAUCCCUGAGCAGGAAAGUUUACCCAUGAAGAUUGGUGGGAUUUUUUGUUUGUUUGUUUUGUUUUGUU,1.53
ACACCUAAAUUUAAUUUAUUUUAUUAAAAUAACAUAAUUGAGGGACCAUCAGAUAACUGUAUUUUGUCAGGUGCAAUAAAAACAAAAUUAAAACCCAAAUCAUCAAGAAA,0.365
AUUUGAGACAGGGUUGGACUCCCAUUUCUCAUCCGAGAAAUUACUUAACCCUUCCUGGCGCUGUACAGUCAUCUUUUAUUCUAUUUCCUCUUUGCUGUUUGUAGUAGAGA,0.377

# Block 2
# Target: Interferon regulatory factor 7, full length, phosphomimetic (IRF7, Homo sapiens, UniProt Q92985, residues 1-503, S101K/S471D/S472D/S475D/S476D/S477D/S483D/S484D/S487D)
# UniProt Q92985, sequence (whole entry, unmodified, looked up): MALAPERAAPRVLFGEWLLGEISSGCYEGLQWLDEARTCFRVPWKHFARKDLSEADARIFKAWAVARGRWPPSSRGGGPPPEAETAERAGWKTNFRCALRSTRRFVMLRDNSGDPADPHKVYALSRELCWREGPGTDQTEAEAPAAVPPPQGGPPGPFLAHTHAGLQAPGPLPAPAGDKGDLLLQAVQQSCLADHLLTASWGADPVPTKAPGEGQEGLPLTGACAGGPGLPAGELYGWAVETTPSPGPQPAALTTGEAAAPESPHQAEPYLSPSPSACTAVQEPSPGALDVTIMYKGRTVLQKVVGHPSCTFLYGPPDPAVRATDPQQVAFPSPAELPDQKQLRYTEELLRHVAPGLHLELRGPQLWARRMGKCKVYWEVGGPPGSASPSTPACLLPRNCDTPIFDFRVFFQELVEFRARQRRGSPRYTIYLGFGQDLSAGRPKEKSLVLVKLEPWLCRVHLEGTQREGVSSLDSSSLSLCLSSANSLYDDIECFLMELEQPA
# Method: protein-binding microarray
# Molecule type: double-stranded DNA, one strand shown
# Sample: in vitro
# Concentration: 250 nM
# Notes: 60-bp whole probe
# Together with: salmon DNA 0.4 mg/ml
# Reference: random background probes
# Direction: higher = stronger binding
# Shared flanks, not repeated: GCCTAGCAC … GTCTTGATTCGCTTGACGCTGCTG
Oligonucleotide,log fluorescence [z-score]
GACGGTTTCGGGACTAGGGACGTGCTA,3.95
TTAGGTTCCCTTTTCCTTCAGTGCTAG,4.29
TTAGGTGTCCTTCTCCTTTAGTGCTAG,-0.123
TGTACTCTCTACATGGGCTTGTGCTAG,0.552
GACGATATCAGTTTCGAGAAGTGCTAG,1.89
TTAGAACTGAGTCTCGCTTAGTGCTAG,0.601
TTCGGTTCCCTTTTCCTTTAGTGCTAG,4
TTAGGTATCATTCTCCTTTAGTGCTAG,0.817
TCATCTCTCTTTCCACTACTGTGCTAG,1.38

# Block 3
# Target: CCND3, cyclin fold, Cln2 fusion (human)
# Method: yeast growth competition, sequencing
# Sample: yeast
# Notes: weak parent motif
# Reference: not given
# Direction: higher = stronger binding
# Starting sequence: WEE1 docking peptide (human); HKTFRKLRLFDTP; partner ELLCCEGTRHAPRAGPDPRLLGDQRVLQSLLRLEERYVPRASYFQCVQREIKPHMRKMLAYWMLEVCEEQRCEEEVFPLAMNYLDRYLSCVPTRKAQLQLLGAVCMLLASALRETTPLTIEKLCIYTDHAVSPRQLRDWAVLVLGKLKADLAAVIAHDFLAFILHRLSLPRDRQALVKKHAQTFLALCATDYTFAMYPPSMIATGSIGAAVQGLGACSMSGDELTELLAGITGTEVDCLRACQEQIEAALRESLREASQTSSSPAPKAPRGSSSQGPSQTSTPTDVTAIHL
Variant,normalised enrichment score
K6I,0.147
D11L,0.113
R5K L9F,-0.262
H1A,0.204
D11V,0.0627
L9V,0.121

# Single results of other studies
Molecule,target,assay,system,conditions,scale,quantity,value
"PhoQ, residues 284 288 289 292 302 303 TTCLQL","PhoP, residues 12 14 15 18 19 SGWQI (Escherichia coli, UniProt P23836)","Sort-seq, item: YFP reporter",E. coli,"PhoQ-PhoP variant library, together with: 10 µM Mg2+","reference: high Mg2+ state, higher = stronger signaling",fold induction,3.04

# Repeated from above (block 2):
Oligonucleotide,log fluorescence [z-score]
TCATCTCTCTTTCCACTACTGTGCTAG,1.38
GACGGTTTCGGGACTAGGGACGTGCTA,3.95
GACGATATCAGTTTCGAGAAGTGCTAG,1.89
